Results collected from several papers.
Each numbered part is a random draw from the data of one study; scales do not carry over between parts. Several values in a cell are separate wells, animals, samples, runs or records.
Sequence of UniProt P42336 (whole entry, unmodified, looked up): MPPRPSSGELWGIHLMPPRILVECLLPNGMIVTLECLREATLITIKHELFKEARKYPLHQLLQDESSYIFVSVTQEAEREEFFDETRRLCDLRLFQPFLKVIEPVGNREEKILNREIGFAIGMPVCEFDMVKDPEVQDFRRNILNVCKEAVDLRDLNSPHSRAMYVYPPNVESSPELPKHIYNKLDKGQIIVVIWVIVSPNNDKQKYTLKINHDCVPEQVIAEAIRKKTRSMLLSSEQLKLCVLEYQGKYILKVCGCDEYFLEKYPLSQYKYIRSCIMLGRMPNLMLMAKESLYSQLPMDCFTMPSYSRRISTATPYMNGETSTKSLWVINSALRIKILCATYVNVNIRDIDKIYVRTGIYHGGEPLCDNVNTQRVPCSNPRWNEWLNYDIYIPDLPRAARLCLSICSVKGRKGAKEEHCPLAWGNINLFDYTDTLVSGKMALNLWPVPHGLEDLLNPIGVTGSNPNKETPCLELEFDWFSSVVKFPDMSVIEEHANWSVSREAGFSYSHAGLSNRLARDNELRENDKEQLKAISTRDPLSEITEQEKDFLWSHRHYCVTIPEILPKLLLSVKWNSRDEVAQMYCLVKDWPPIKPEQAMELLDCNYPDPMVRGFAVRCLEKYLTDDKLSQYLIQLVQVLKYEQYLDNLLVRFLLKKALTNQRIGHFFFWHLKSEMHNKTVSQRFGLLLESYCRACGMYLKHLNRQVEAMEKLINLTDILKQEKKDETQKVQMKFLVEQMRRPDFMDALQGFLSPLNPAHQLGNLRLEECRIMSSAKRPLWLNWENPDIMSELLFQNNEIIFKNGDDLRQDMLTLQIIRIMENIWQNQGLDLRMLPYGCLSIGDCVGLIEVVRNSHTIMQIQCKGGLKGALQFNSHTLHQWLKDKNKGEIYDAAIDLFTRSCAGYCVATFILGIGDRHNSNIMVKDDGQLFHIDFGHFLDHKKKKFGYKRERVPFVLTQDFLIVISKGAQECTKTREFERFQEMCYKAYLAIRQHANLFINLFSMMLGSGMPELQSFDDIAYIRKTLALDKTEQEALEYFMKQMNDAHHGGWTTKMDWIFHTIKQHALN
Sequence of UniProt P10721 (whole entry, unmodified, looked up): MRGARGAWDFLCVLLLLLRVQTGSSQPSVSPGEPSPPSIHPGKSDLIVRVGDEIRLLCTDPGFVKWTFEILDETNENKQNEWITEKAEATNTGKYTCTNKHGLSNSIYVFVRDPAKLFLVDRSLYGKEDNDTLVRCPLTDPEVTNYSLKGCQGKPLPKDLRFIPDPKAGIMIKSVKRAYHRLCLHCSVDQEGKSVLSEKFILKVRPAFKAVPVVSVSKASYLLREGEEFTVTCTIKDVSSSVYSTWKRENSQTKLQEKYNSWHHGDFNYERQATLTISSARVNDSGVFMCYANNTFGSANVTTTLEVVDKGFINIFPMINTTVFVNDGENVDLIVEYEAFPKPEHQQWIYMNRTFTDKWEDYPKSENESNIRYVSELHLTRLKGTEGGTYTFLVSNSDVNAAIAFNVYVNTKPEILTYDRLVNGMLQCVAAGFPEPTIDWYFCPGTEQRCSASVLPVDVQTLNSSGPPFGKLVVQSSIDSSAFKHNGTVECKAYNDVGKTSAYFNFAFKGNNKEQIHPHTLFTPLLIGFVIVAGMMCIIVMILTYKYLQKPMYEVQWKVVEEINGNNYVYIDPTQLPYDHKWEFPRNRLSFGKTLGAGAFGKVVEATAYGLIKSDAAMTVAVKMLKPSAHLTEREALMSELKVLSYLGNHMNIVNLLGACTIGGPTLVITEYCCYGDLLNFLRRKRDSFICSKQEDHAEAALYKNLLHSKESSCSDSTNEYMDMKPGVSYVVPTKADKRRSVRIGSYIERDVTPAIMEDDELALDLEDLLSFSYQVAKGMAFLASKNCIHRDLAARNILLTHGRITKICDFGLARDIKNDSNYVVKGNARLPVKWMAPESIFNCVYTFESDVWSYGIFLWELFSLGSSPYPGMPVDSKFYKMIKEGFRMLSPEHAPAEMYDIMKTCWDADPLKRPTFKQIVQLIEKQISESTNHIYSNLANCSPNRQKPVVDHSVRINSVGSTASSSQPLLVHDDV
Sequence of UniProt O75747 (whole entry, looked up): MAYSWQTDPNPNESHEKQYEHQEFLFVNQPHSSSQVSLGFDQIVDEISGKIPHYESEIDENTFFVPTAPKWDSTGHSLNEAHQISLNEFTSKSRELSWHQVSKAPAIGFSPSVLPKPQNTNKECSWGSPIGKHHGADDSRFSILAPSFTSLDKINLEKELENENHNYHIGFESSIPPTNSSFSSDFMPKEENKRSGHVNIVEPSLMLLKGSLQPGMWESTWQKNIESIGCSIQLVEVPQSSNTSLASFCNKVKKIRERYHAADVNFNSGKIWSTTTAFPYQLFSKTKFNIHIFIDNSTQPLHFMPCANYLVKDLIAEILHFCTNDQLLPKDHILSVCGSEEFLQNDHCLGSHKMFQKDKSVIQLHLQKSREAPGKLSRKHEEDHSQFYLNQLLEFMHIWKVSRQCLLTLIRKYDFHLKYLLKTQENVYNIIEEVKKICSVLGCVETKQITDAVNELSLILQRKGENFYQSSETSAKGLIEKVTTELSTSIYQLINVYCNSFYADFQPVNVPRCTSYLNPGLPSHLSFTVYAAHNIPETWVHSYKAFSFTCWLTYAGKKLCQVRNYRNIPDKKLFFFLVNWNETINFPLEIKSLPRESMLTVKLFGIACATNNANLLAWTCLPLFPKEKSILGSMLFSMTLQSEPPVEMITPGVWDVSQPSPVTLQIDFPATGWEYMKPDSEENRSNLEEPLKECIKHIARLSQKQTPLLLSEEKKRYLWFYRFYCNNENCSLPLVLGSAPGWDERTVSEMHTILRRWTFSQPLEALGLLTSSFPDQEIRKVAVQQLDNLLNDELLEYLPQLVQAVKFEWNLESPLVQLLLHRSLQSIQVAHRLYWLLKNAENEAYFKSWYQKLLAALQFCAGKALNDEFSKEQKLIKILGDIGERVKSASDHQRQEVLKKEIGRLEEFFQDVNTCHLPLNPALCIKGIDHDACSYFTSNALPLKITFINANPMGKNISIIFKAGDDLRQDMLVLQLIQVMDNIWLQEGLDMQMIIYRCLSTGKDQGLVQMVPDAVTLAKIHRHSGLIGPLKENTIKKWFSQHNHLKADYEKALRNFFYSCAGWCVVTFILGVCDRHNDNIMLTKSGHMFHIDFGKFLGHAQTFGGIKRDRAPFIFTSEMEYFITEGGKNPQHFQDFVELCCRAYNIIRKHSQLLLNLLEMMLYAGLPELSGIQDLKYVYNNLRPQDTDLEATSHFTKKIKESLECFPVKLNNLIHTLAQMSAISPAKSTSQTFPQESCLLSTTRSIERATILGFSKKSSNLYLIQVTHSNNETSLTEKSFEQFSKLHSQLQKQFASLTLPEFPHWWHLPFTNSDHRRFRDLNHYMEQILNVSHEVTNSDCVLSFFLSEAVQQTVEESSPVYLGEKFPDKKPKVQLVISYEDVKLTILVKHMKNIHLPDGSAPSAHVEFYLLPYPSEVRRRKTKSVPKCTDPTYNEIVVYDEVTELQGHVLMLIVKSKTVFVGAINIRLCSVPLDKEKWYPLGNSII
Sequence of UniProt Q9P1W9 (whole entry, looked up): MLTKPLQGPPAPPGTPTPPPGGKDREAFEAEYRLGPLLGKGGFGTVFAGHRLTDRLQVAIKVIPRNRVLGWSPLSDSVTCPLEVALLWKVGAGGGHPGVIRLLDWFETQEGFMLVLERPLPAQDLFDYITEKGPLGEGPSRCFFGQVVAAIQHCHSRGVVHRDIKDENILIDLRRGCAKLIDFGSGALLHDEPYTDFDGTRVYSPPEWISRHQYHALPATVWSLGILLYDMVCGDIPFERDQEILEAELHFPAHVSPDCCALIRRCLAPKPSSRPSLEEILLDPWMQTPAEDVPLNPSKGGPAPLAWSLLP
Sequence of UniProt Q8NEB9 (whole entry, looked up): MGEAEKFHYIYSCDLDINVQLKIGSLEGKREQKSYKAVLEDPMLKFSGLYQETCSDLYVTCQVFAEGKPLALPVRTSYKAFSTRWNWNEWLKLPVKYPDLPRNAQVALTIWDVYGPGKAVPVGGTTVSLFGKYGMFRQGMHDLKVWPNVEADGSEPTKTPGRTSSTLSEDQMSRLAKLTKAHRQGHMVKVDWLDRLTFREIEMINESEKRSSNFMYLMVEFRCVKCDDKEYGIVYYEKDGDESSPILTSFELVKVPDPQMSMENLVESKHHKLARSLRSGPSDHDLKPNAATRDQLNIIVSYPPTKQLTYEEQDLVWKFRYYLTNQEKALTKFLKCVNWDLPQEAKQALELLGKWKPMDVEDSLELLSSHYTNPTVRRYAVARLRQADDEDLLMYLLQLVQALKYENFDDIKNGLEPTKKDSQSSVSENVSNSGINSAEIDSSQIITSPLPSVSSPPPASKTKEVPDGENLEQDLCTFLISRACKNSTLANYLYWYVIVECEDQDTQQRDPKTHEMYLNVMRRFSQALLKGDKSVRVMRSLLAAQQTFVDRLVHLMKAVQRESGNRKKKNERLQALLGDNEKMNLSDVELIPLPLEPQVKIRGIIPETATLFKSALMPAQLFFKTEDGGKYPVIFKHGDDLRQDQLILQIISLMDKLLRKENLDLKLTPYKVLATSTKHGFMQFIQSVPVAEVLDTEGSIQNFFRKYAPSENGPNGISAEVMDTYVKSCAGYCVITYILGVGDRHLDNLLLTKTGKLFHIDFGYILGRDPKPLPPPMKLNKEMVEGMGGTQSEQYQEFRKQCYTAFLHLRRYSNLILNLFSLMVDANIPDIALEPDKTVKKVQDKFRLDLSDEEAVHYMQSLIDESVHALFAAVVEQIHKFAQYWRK
Sequence of UniProt Q16539 (whole entry, looked up): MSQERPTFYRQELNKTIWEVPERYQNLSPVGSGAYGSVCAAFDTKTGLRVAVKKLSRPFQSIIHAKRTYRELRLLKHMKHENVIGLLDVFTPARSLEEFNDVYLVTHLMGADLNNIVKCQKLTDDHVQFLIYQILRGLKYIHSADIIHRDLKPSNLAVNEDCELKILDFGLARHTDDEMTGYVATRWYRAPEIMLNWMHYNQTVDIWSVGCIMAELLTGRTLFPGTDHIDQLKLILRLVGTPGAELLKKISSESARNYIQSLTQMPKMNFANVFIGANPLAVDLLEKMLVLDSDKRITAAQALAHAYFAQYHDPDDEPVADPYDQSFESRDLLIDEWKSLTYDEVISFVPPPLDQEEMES

Series 1
Compound: Cc1ccc(NC(=O)c2ccnc(C(F)(F)F)c2)cc1-c1cc(OCCO)nc(N2CCOCC2)c1
Tested at: 1 µM
CDPK1 (Plasmodium falciparum, UniProt P62344); competitive binding, DiscoverX scanMAX binding — remaining binding: 77%.
The remaining binding was 70% (WNK3 (Homo sapiens, UniProt Q9BYP7); competitive binding panel; relative to: vehicle).
It gave 88% for remaining binding (MAP3K11 (Homo sapiens, UniProt Q16584); competitive binding panel, refers to: MLK3; relative to: vehicle).
The remaining binding was 100% (EIF2AK4 (Homo sapiens, UniProt Q9P2K8, S808G); competitive binding panel; relative to: vehicle).

Series 2
Cell line: HaCaT
Tested at: 100 µM
Time: 18 h
The viability of `CCCN(CCC)C(=O)C(CCC(=O)O)NC(=O)c1ccccc1` (stereo not drawn) is reported as 97.3%.
`CC(C)NCC(O)COc1cccc2[nH]c3ccccc3c12` (stereo not drawn) gave a viability of 34.6%.
With `CC(=O)OCC(CCn1cnc2cnc(N)nc21)COC(C)=O` the viability was 92.2%.
For `O[C@H](CNC[C@@H](O)[C@H]1CCc2cc(F)ccc2O1)[C@@H]1CCc2cc(F)ccc2O1`, the viability was 16.1%.
With `C=CCc1cc(OC)c(O)c(C(=O)NCCO)c1` the viability was 117%.
For `CCC(=O)OCC(=O)[C@@]1(OC(=O)CC)[C@@H](C)C[C@H]2[C@@H]3CCC4=CC(=O)C=C[C@]4(C)[C@@]3(F)[C@@H](O)C[C@@]21C`, the viability was 71.9%.
`O=C1Nc2ccc(Cl)cc2[C@@](C#CC2CC2)(C(F)(F)F)O1` has a viability of 16.3%.

Series 3
Species: human
Sample: microsomes or S9
Tested at: 2 µM
Time: 0.5 h
With `c1ccc(CNc2nc3ccccc3c3nncn23)cc1` the remaining compound was 67.9%.
With `O=C1CC(N2CCC3(CC2)OCCO3)C(=O)N1c1ccc2c(c1)OCO2` (stereo not drawn) the remaining compound was 41.4%.
`CC(C)(C)c1nc(CS(=O)(=O)c2nnc3c(Cl)cc(Cl)cn23)cs1` gave a remaining compound of 0.431%.
`Cc1cc(C)c(C)c(S(=O)(=O)NCCOCCO)c1C` has a remaining compound of 48.4%.
`CN1CCN(c2nsc(-c3ccccc3)c2C#N)CC1` has a remaining compound of 32.1%.
The remaining compound of `Cn1c2c(c3cc(O)ccc31)C=NC(Cc1ccccc1)C(=O)N2` (stereo not drawn) is reported as 99.5%.
`O=S(=O)(NCCCOC1CCCCC1)c1ccc(Cl)c(-c2nnn[nH]2)c1` has a remaining compound of 44.3%.

Series 4
SMILES: Cc1cc(C)c(-n2ccn3nc(-c4cccnc4)cc23)cc1NC(=O)c1cc(C#N)cc(S(F)(F)(F)(F)F)c1
Effect on: cell-free assay
Technique: competition with immobilised ligand
Tested at: 0.1 µM
PIK3CA (Homo sapiens, UniProt P42336, I800L) — remaining binding: 92.8%.
For PIK3CA (Homo sapiens, UniProt P42336, H1047L): remaining binding read 82.7%.
For PIK3C2G (Homo sapiens, UniProt O75747): remaining binding read 60.7%.
It gave 83.5% for remaining binding (DCLK3 (Homo sapiens, UniProt Q9C098)).
For NUAK2 (Homo sapiens, UniProt Q9H093): remaining binding read 86.1%.
The remaining binding was 90.6% (DCLK2 (Homo sapiens, UniProt Q8N568)).
It gave 61.6% for remaining binding (HIPK1 (Homo sapiens, UniProt Q86Z02)).
SRPK1 (Homo sapiens, UniProt Q96SB4) — remaining binding: 67.4%.
For FES (Homo sapiens, UniProt P07332): remaining binding read 84.6%.
It gave 0% for remaining binding (MAPK14 (Homo sapiens, UniProt Q16539)).
PIM2 (Homo sapiens, UniProt Q9P1W9) — remaining binding: 100%.
It gave 89.4% for remaining binding (BRAF (Homo sapiens, UniProt P15056)).
For FLT3 (Homo sapiens, UniProt P36888, ITD): remaining binding read 100%.
KIT (Homo sapiens, UniProt P10721, T670I/V559D) — remaining binding: 67.9%.
It gave 75.6% for remaining binding (MST1R (Homo sapiens, UniProt Q04912)).
For MAPK7 (Homo sapiens, UniProt Q13164): remaining binding read 100%.
It gave 70.2% for remaining binding (PIP5K1C (Homo sapiens, UniProt O60331)).
The remaining binding was 47.1% (TAOK3 (Homo sapiens, UniProt Q9H2K8)).
The remaining binding was 88.5% (EGFR (Homo sapiens, UniProt P00533, del747-752/P753S)).
EPHA1 (Homo sapiens, UniProt P21709) — remaining binding: 100%.
It gave 82.6% for remaining binding (EPHA6 (Homo sapiens, UniProt Q9UF33)).
It gave 44.5% for remaining binding (KIT (Homo sapiens, UniProt P10721)).
The remaining binding was 85.9% (GSK3B (Homo sapiens, UniProt P49841)).
For PIK3C3 (Homo sapiens, UniProt Q8NEB9): remaining binding read 84.9%.

Series 5
Cell line: mouse MPNST tumor cells
Technique: high-content nuclear imaging
Refers to: cell number
Tested at: 10 µM
Time: 12 h
Notes: mean of 2 replicates
Relative to: plate mean
Direction: higher = more cells
`CNC1(C)C2CCC(C2)C1(C)C` (stereo not drawn) has a nuclei count of 0.538 z-score and 0.473 z-score.
`CN(C)[C@@H]1C(=O)C(C(N)=O)=C(O)[C@@]2(O)C(=O)C3=C(O)c4c(O)ccc(Cl)c4[C@@H](O)[C@H]3C[C@@H]12` has a nuclei count of -0.509 z-score.
With `O=C(Nc1cc(-c2ccccc2)nn1-c1ccccc1F)c1ccc([N+](=O)[O-])cc1` the nuclei count was 0.855 z-score.
`CC1CNc2c(cccc2S(=O)(=O)N[C@@H](CCCNC(=N)N)C(=O)N2CC[C@@H](C)C[C@@H]2C(=O)O)C1` (stereo partly drawn) gave a nuclei count of 0.858 z-score and 0.982 z-score and 0.724 z-score.
`CC(=O)N[C@@H](CS)C(=O)O` gave a nuclei count of 0.536 z-score.
`NC(=O)c1cn(Cc2c(F)cccc2F)nn1` gave a nuclei count of 4.17 z-score.
